Results collected from several papers.
Every numbered part comes from another study and shows a few of its results, in no order. Several values in a cell are separate wells, animals, samples, runs or records.
Sequence of UniProt Q96SW2 (whole entry, looked up): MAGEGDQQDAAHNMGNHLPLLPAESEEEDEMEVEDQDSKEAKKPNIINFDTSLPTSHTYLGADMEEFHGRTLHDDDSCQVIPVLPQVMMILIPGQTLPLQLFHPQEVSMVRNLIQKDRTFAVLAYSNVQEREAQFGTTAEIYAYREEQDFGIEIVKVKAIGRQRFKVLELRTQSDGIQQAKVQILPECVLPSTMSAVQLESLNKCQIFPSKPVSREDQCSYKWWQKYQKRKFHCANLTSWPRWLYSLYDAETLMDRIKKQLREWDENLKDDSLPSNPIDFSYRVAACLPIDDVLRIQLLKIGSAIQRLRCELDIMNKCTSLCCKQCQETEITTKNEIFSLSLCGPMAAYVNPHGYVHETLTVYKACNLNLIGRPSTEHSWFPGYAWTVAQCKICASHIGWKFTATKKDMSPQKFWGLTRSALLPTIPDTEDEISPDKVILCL
Sequence of UniProt P51955 (whole entry, looked up): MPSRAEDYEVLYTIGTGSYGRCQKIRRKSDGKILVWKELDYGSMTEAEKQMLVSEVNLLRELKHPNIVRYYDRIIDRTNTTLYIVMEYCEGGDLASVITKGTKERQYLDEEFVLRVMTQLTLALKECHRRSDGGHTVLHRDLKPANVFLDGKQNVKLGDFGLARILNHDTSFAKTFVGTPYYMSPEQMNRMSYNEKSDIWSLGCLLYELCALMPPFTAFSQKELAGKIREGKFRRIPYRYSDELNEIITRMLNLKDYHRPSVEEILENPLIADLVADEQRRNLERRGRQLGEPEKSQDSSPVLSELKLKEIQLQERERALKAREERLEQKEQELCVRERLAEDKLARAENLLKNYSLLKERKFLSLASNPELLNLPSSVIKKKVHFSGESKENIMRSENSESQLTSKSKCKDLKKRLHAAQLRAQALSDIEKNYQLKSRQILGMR

Series 1
Structure (SMILES): Cc1ccc(O)c(C)c1-c1cnc2[nH]c(-c3cnc(N4CCC5(CC4)CC(N4CCN(c6ccc(N[C@H]7CCC(=O)NC7=O)cc6F)CC4)CO5)nc3)cc2c1C#N (single isomer, unassigned)
PKMYT1: Membrane-associated tyrosine- and threonine-specific cdc2-inhibitory kinase (PKMYT1, Homo sapiens, UniProt Q99640)
Sequence of UniProt Q99640 (whole entry, looked up): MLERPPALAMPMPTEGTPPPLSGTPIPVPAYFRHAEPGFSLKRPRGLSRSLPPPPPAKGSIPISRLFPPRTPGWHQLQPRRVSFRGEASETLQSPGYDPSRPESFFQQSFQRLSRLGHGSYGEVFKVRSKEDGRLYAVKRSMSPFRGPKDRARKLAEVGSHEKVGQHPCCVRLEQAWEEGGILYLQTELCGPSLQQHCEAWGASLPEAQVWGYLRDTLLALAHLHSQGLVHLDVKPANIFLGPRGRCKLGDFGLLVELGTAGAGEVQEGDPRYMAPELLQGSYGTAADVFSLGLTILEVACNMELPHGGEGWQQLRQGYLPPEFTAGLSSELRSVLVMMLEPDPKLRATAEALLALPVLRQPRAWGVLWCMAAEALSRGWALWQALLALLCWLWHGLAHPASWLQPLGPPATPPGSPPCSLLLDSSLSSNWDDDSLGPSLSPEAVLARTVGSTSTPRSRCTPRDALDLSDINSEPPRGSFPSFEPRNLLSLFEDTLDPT
NCI-H1648; cell proliferation; 4.572 nM — inhibition: -15.2% and -12.1% and -5.6%.
It gave 98.1% for inhibition (PKMYT1; enzyme activity, inhibitor; 0.1235 µM).
PKMYT1; enzyme activity, inhibitor; 0.3704 µM — inhibition: 99.3%.
For HCC1569; automated immunoblotting, item: CDK1 phospho-Thr14; concentration not given, 2 h after washout: inhibition read 51%.
For HCC1569; automated capillary immunoblot, item: CDK1 phospho-Thr14; 100 nM, 24 h: inhibition read 82.2%.
For Protein cereblon (CRBN, Homo sapiens, UniProt Q96SW2); binding; 10000 nM: inhibition read 58.1% and 74.5%.
It gave 63% for inhibition (PKMYT1; 0.01235 µM).
For PKMYT1; binding, HTRF; 13.72 nM: inhibition read 81.4% and 82%.
It gave 2.03% for inhibition (NCI-H1568; cell growth; 4.572 nM).

Series 2
SMILES: C[C@@H]1CN(c2ccc(-c3cc(C(=O)NCCOCCOCCOCCOCCNC(=O)Cn4cc(-c5[nH]cc(C(=O)N[C@@H](CC(N)=O)c6ccc(F)c(Cl)c6)c5-c5ccc(Cl)cc5F)cn4)ccc3F)cc2NC(=O)c2c[nH]c(=O)cc2C(F)(F)F)C[C@H](C)N1C
Read-out: thermal unfolding
Technique: differential scanning fluorimetry
Concentration: 5.5 µM
Direction: higher = more unfolded
DCAF1: DDB1- and CUL4-associated factor 1 (DCAF1, Homo sapiens, UniProt Q9Y4B6)
Sequence of UniProt Q9Y4B6 (whole entry, looked up): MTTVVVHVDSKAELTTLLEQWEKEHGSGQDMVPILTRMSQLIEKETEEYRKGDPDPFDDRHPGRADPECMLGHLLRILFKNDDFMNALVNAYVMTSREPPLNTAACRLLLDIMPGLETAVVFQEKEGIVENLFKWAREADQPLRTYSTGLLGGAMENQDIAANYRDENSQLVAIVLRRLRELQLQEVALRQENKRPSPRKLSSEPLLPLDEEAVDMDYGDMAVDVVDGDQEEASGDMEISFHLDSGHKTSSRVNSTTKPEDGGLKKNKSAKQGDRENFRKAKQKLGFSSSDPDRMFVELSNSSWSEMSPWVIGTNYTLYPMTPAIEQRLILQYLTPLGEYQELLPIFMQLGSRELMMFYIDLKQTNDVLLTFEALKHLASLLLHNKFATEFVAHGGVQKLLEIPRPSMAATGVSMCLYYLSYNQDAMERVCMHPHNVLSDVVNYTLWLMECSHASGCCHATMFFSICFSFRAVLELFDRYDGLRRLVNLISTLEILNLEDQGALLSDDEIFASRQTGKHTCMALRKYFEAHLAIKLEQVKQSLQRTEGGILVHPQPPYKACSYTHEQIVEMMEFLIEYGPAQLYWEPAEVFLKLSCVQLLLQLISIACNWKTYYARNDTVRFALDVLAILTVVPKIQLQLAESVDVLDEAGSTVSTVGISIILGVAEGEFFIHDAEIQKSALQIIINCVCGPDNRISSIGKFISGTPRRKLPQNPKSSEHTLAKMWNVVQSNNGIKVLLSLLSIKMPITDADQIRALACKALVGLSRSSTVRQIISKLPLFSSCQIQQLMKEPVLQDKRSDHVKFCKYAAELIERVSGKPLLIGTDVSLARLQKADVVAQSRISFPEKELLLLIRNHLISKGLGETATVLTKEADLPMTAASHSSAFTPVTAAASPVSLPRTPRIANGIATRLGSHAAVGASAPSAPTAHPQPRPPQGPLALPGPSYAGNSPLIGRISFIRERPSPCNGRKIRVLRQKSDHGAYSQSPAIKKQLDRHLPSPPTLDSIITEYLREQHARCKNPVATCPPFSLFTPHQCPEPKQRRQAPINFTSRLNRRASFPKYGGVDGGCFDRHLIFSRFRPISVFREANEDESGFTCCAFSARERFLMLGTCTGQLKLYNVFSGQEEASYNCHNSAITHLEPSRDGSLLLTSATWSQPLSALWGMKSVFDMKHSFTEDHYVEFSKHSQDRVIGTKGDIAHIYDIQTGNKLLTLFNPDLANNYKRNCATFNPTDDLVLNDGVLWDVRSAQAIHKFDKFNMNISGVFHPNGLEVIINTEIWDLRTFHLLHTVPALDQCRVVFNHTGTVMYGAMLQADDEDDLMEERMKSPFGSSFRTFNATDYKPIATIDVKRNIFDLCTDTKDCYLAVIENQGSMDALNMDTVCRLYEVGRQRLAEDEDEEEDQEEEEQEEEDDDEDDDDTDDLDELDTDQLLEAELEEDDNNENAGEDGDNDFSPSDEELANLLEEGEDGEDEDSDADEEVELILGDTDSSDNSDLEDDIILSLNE
WDR5: WD repeat-containing protein 5 (WDR5, Homo sapiens, UniProt P61964)
It gave 17300 a.u. for “SYPRO Orange fluorescence” (DCAF1; 53.61 °C).
The “SYPRO Orange fluorescence” was 11700 a.u. (DCAF1; 43.8 °C).
The “SYPRO Orange fluorescence” was 9090 a.u. (WDR5; 62.41 °C).
WDR5; 36.6 °C — “SYPRO Orange fluorescence”: 14300 a.u.
The “SYPRO Orange fluorescence” was 9710 a.u. (DCAF1; 38.2 °C).
DCAF1; 77.81 °C — “SYPRO Orange fluorescence”: 46100 a.u.
For WDR5; 76.81 °C: “SYPRO Orange fluorescence” read 14400 a.u.

Series 3
Target: Cyclin-dependent kinase 12, with cyclin K (CDK12, Homo sapiens, UniProt Q9NYV4)
Sequence of UniProt Q9NYV4 (whole entry, looked up): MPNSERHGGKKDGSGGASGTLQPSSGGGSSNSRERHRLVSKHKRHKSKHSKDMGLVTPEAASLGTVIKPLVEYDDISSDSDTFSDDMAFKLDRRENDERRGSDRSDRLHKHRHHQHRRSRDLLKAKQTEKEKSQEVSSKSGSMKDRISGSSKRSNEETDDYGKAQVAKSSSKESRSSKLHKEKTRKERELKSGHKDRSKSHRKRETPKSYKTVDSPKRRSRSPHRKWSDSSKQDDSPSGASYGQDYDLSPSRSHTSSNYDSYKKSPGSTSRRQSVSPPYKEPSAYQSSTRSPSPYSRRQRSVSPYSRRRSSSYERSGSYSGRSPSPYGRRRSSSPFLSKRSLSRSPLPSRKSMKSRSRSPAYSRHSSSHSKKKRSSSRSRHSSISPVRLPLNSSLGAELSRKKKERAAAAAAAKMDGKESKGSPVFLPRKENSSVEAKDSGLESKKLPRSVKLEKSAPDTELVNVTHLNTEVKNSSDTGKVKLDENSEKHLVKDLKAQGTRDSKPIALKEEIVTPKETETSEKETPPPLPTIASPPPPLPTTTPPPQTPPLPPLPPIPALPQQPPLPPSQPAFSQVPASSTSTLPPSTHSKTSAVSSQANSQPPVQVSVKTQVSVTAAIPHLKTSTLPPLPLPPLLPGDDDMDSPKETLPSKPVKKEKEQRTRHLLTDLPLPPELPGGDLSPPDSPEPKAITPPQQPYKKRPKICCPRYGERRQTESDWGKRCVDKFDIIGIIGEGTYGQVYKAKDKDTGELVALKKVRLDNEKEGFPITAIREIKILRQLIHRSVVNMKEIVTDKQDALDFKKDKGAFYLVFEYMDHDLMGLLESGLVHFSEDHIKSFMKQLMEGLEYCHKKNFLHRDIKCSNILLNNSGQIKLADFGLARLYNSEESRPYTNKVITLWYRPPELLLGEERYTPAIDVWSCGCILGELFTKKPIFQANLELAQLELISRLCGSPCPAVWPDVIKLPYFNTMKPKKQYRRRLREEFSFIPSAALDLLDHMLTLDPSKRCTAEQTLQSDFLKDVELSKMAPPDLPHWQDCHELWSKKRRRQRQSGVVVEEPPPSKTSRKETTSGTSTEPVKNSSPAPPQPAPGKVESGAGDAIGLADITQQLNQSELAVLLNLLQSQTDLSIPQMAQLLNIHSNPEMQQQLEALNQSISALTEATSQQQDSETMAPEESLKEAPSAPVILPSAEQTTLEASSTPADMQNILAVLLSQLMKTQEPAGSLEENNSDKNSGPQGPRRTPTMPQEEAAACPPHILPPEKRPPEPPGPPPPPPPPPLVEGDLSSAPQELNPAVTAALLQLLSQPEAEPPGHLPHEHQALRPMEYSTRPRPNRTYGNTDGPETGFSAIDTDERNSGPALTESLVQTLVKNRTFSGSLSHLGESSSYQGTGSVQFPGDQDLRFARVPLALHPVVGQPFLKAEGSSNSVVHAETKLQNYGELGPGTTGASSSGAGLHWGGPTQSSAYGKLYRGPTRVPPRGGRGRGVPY
Read-out: kinase activity
Action: inhibitor
Technique: ADP-Glo
Concentration: 0.0001 µM
`CC(=O)N1CCN(c2nc(NCc3nc4cc(Cl)c(Cl)cc4[nH]3)c3ncn(-c4cnn(C)c4)c3n2)CC1` has an inhibition of -2.1%.
`CCn1cnc2c(NCc3nc4cc(Cl)c(Cl)cc4[nH]3)nc(N3CCN(C(=O)CNC(C)=O)CC3)nc21` has an inhibition of 3%.
With `CCn1cnc2c(NCc3nc4cc(Cl)c(Cl)cc4[nH]3)nc(N3CCN(c4ccccn4)CC3)nc21` the inhibition was 7.1%.
`CCn1cnc2c(NCc3nc4cc(F)c(F)cc4[nH]3)nc(N3CCn4ncnc4C3)nc21` has an inhibition of 11.5%.
For `CC(=O)N1CCN(c2nc(NCc3nc4cc(Cl)c(Cl)cc4[nH]3)c3ncn(C(C)C)c3n2)CC1`, the inhibition was 2.1%.
With `CCCCOc1nc(NCc2nc3cc(Cl)c(Cl)cc3[nH]2)c2ncn(CC)c2n1` the inhibition was 7.9%.
`CC(=O)N1CCN(c2nc(NCc3nc4cc(Cl)c(Cl)cc4[nH]3)c3ncn(C)c3n2)CC1` gave an inhibition of -3.9%.
For `CCn1cnc2c(NCc3nc4cc(Cl)c(Cl)cc4[nH]3)nc(N3CCN(C(=O)c4ccccc4)CC3)nc21`, the inhibition was -14.5%.
The inhibition of `CCn1cnc2c(NCc3nc4cc(Cl)c(Cl)cc4[nH]3)nc(N3CCC(NC(C)=O)CC3)nc21` is reported as 1.8%.

Series 4
SMILES: CN(C1COC1)C(C)(C)/C=C(\C#N)C(=O)N1CCC[C@H]1Cn1nc(-c2ccc(Oc3ccccc3)cc2F)c2c(N)ncnc21
Read-out: kinase activity
PRKCQ: Protein kinase C theta type (PRKCQ, Homo sapiens, UniProt Q04759)
Sequence of UniProt Q04759 (whole entry, looked up): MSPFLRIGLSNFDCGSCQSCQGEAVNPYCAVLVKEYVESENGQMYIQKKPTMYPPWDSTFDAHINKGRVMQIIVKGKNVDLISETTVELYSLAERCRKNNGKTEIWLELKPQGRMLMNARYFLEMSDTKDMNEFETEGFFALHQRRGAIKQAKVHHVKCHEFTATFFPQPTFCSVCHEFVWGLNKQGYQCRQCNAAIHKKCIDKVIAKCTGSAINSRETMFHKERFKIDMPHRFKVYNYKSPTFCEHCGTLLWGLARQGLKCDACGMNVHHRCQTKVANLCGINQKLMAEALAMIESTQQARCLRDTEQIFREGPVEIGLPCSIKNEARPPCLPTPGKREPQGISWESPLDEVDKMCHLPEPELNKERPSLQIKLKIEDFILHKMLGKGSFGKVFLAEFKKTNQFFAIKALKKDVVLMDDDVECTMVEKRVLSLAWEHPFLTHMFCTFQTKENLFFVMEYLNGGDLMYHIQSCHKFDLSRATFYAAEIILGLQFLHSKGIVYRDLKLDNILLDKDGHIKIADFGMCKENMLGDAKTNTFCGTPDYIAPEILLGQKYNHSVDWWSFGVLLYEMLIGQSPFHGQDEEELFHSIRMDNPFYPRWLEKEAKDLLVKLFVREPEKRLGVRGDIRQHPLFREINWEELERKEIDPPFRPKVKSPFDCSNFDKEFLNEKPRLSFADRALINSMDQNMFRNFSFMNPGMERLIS
MUSK (Homo sapiens, UniProt O15146); 0.1 µM — inhibition: 9%.
It gave 2% for inhibition (CLK2 (Homo sapiens, UniProt P49760); 1 µM).
It gave 4% for inhibition (MARK1 (Homo sapiens, UniProt Q9P0L2); 0.1 µM).
For CSF1R (Homo sapiens, UniProt P07333); 1 µM: inhibition read 5%.
EPHA8 (Homo sapiens, UniProt P29322); 1 µM — inhibition: 0%.
NEK2 (Homo sapiens, UniProt P51955); 0.1 µM — inhibition: 0%.
The inhibition was 6% (PRKCQ; 0.1 µM).
It gave 5% for inhibition (PRKCQ; 1 µM).
The inhibition was 24% (FGFR2 (Homo sapiens, UniProt P21802); 1 µM).
HCK (Homo sapiens, UniProt P08631); 1 µM — inhibition: 32%.
The inhibition was 0% (PAK1 (Homo sapiens, UniProt Q13153); 0.1 µM).
The inhibition was 9% (CDK2 (Homo sapiens, UniProt P24941); 0.1 µM).
MAP2K2 (Homo sapiens, UniProt P36507); 1 µM — inhibition: -1%.
For SGK1 (Homo sapiens, UniProt O00141); 0.1 µM: inhibition read 17%.
For TEK (Homo sapiens, UniProt Q02763); 0.1 µM: inhibition read -1%.

Series 5
Compound: O=C(O)C1(O)Oc2cc(Cl)ccc2N(Cc2ccccc2)C1=O (stereo not drawn)
For Arabidopsis thaliana; root length; Col-0, seedlings; 6.25 µg/mL: inhibition read 6.36%.
Arabidopsis thaliana; root length; Col-0; 12.5 µg/mL, 7 days, seed germination, dark — inhibition: 7.7%.
For Arabidopsis thaliana; hypocotyl length; Col-0; 6.25 µg/mL, 7 days, seed germination, dark: inhibition read 1.6%.
The inhibition was 71.5% and 73.2% and 77.9% (Setaria viridis; fresh weight; 150 g ai/ha, pre-emergence treatment).
It gave 94.9% for inhibition (Arabidopsis thaliana; root length; Col-0, seedlings; 100 µg/mL).
For Arabidopsis thaliana; root length; Col-0; 25.0 µg/mL, 7 days, seed germination, dark: inhibition read 17.2%.
Arabidopsis thaliana; root length; Col-0; 3.13 µg/mL, 7 days, seed germination, dark — inhibition: 6%.
The inhibition was 7.73% (Arabidopsis thaliana; root length; Col-0, seedlings; 12.5 µg/mL).
It gave 36.7% for inhibition (Arabidopsis thaliana; hypocotyl length; Col-0, seedlings; 50 µg/mL).
It gave 21.1% for inhibition (Arabidopsis thaliana; hypocotyl length; Col-0, seedlings; 25 µg/mL).
For Arabidopsis thaliana; root length; Col-0; 50.0 µg/mL, 7 days, seed germination, dark: inhibition read 52.4%.
For Echinochloa crus-galli; fresh weight; 150 g ai/ha, post-emergence treatment: inhibition read 45.4% and 46.9% and 45.6%.
For Alopecurus aequalis; fresh weight; 150 g ai/ha, pre-emergence treatment: inhibition read 76.4% and 70.8% and 74.5%.
For Arabidopsis thaliana; hypocotyl length; Col-0, seedlings; 6.25 µg/mL: inhibition read 1.63%.

Further values, each from its own experiment
KRAS G12D GDP-bound: GTPase KRas, GDP-bound (KRAS, Homo sapiens, UniProt P01116, G12D)
For `Cc1ncsc1-c1ccc(C2(NC(=O)C3CC(O)CN3C(=O)C(NC(=O)c3ccc(COc4c(-c5c(C)c(F)cc6[nH]ncc56)c(C5CC5)cc5c(N6CC7CC6CN7)nc(OC6CCOCC6)nc45)cc3)C(C)(C)C)CC2)cc1` (stereo not drawn), “dissociation rate constant (kd)” read 0.00841 s⁻¹ and 0.00865 s⁻¹ and 0.00615 s⁻¹ and 0.00592 s⁻¹ and 0.00598 s⁻¹ (KRAS G12D GDP-bound; binder, multi-cycle SPR; binary, without VCB).
`Cc1ncsc1-c1ccc(C2(NC(=O)C3CC(O)CN3C(=O)C(NC(=O)c3ccc(COc4c(-c5c(C)c(F)cc6[nH]ncc56)c(C5CC5)cc5c(N6CC7CC6CN7)nc(OC6CCOCC6)nc45)cc3)C(C)C)CC2)cc1` (stereo not drawn) gave a phospho-ERK1/2 level of 107% and 99.2% and 101% and 102% and 85.7% (AsPC-1; in-cell ELISA; 10 nM, individual replicates).
`Cc1ncsc1-c1ccc(C(CO)NC(=O)C2CC(O)CN2C(=O)C(NC(=O)c2ccc(COc3c(-c4c(C)c(F)cc5[nH]ncc45)c(C4CC4)cc4c(N5CC6CC5CN6)nc(OC5CCOCC5)nc34)cc2)C(C)C)cc1` (stereo not drawn) gave a koff of 0.00634 s⁻¹ (KRAS G12D GDP-bound; SPR, multi-cycle; immobilized KRAS G12D; binary, geometric mean).
